Published values of several laboratories.
“And” joins repeats or separate records; there may be more than shown.
Sequence of UniProt P45984 (whole entry, looked up): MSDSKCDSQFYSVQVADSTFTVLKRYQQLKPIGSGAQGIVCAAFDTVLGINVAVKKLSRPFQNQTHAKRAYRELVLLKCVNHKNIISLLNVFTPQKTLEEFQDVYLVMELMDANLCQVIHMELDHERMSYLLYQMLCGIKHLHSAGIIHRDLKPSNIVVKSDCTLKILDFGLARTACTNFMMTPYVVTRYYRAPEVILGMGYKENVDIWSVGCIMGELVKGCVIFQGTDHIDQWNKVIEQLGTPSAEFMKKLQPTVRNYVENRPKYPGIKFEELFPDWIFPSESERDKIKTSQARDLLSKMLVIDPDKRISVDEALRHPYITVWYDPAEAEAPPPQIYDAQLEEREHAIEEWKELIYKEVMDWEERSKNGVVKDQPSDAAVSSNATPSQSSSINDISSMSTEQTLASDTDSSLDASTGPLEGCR
Sequence of UniProt P30101 (whole entry, looked up): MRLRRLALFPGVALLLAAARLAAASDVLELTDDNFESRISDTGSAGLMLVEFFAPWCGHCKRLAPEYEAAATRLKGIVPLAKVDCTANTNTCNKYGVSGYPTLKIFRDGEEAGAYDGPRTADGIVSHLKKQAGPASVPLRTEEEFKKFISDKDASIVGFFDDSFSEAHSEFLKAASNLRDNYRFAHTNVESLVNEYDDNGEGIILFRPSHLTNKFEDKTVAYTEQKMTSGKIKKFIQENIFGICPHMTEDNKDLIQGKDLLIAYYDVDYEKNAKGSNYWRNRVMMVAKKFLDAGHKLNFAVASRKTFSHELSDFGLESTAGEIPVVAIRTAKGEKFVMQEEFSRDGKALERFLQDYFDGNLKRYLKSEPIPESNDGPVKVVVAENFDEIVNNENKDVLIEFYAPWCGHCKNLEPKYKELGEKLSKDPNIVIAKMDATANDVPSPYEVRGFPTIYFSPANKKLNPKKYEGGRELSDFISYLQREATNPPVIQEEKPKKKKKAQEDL
Sequence of UniProt P0A7G6 (whole entry, looked up): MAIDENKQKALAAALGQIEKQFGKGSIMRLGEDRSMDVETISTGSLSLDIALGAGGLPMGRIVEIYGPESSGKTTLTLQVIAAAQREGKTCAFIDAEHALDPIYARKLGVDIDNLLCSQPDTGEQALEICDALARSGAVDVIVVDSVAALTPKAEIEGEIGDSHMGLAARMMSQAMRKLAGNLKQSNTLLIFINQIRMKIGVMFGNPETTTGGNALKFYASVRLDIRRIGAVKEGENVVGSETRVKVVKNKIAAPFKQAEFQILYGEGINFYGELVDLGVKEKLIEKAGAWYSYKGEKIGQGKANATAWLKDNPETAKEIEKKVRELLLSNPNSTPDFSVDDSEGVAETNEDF
Sequence of UniProt Q9UKF6 (whole entry, looked up): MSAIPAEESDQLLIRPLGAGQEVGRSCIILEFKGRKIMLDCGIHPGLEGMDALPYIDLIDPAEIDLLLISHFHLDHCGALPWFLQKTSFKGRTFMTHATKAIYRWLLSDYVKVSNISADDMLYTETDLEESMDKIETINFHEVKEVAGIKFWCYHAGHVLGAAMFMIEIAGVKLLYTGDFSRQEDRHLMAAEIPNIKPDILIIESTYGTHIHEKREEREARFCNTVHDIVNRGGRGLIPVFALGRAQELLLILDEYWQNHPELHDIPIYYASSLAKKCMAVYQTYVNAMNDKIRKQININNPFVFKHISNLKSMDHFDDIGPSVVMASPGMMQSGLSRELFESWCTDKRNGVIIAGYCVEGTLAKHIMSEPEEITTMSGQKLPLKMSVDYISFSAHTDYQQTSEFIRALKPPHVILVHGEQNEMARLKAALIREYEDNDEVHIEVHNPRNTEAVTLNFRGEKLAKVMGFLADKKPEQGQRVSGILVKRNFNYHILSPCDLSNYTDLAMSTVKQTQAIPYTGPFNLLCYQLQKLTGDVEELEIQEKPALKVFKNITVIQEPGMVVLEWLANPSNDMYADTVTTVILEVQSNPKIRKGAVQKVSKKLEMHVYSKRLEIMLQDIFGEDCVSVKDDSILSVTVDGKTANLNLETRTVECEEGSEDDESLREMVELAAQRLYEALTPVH
Sequence of UniProt Q7Z418 (whole entry, looked up): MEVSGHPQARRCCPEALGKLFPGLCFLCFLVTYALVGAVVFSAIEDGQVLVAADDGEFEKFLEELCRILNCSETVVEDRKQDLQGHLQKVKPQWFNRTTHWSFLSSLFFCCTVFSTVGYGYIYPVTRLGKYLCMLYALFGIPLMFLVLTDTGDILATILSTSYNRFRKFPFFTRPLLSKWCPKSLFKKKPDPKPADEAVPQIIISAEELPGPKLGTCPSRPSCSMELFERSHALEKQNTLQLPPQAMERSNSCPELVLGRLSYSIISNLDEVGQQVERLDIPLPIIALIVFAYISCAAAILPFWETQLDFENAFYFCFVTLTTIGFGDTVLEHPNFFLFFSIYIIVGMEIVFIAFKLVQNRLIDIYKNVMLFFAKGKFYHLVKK
Sequence of UniProt P09884 (whole entry, looked up): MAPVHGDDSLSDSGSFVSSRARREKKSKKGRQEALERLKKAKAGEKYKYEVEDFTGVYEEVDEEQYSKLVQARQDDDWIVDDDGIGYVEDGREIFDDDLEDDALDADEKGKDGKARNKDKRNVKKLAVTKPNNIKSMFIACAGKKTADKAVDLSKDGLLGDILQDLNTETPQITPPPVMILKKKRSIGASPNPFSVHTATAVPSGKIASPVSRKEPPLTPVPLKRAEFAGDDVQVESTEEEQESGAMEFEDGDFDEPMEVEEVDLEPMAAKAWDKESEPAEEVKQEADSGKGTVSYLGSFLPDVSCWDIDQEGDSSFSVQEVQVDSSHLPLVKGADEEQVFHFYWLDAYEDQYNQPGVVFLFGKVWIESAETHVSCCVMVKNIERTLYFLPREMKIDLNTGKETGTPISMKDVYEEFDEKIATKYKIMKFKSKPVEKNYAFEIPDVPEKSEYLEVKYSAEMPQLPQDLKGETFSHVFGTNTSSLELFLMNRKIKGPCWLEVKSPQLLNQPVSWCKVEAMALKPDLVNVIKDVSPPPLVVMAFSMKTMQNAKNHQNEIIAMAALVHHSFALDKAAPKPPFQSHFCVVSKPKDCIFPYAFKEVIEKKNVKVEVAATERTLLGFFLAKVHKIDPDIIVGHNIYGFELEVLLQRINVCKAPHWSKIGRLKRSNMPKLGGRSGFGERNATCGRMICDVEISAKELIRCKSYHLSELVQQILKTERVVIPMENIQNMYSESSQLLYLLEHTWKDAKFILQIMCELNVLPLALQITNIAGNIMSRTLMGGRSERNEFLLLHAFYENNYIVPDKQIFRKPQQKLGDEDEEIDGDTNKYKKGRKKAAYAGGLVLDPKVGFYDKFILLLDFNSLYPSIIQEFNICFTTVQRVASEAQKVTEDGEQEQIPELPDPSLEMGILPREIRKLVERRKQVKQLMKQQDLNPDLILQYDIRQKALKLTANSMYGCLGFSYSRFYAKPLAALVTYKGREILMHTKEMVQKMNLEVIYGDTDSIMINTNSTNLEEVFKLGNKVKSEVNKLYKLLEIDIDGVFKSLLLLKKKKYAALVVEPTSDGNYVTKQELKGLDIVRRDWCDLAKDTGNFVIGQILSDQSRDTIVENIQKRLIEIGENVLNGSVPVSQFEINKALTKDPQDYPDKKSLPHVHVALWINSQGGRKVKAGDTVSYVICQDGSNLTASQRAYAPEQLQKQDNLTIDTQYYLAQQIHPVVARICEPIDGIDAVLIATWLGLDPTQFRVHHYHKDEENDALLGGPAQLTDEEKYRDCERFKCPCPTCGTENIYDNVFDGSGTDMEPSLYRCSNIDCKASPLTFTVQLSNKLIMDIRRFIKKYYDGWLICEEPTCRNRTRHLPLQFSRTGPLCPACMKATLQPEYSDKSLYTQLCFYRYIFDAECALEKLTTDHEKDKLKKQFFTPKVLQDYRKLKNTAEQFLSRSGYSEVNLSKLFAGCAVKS
Sequence of UniProt Q14145 (whole entry, looked up): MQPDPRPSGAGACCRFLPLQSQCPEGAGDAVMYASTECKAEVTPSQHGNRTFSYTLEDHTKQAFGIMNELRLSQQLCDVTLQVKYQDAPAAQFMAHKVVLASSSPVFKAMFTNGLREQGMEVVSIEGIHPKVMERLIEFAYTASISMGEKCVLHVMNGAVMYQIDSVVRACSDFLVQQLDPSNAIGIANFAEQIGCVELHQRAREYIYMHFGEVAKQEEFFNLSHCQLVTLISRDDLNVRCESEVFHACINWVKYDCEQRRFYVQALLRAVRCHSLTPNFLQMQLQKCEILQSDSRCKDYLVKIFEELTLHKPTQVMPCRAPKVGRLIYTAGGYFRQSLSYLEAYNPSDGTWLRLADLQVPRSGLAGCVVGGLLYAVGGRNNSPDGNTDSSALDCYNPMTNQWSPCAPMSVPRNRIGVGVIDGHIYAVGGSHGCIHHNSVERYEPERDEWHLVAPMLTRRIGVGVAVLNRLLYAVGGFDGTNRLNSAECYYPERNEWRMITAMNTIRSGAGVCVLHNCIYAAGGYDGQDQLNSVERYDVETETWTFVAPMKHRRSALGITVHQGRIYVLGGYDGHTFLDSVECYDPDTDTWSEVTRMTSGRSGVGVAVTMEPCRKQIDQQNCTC
Sequence of UniProt Q01650 (whole entry, looked up): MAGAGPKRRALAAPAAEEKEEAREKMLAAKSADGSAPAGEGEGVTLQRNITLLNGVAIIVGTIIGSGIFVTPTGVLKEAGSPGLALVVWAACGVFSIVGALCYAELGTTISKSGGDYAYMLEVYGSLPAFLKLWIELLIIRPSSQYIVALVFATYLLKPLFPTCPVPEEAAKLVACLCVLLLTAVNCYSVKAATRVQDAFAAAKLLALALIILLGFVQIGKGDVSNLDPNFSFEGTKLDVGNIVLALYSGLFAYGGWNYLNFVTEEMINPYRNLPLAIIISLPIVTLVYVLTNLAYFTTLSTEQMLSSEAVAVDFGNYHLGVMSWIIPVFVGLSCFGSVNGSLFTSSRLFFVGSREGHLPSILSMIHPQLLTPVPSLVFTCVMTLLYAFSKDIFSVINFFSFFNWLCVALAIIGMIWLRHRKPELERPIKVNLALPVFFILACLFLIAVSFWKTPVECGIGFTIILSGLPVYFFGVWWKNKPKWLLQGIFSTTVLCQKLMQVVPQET

Structure (SMILES) | target | test | system | conditions | IC50
CCCCCC[N+](CCCCCC)(CCCCCC)CCCCCC | Potassium channel subfamily K member 18 (KCNK18, Homo sapiens, UniProt Q7Z418) | ion current, inhibitor, patch clamp | – | – | 0.5 µM
N[C@@H](Cc1c[nH]c2ccc(OCc3cccc(I)c3)cc12)C(=O)O | Large neutral amino acids transporter small subunit 1 (SLC7A5, Homo sapiens, UniProt Q01650) | transporter uptake, inhibitor, radiometric | – | – | 16 µM
Nc1cccc2ccc(O)c(/N=N/c3ccc(S(N)(=O)=O)cc3)c12 | Lactoylglutathione lyase (GLO1, Homo sapiens, UniProt Q04760) | enzyme activity, inhibitor | – | – | 8.61 µM
COC(=O)C1CN1S(=O)(=O)c1ccc2cc(C)ccc2c1 (stereo not drawn) | Protein disulfide-isomerase A3 (PDIA3, Homo sapiens, UniProt P30101) | enzyme activity, inhibitor, absorbance | – | pH 7.6 | > 200 µM
CC(C)C[C@H](NC(=O)[C@H](CC(N)=O)NC(=O)[C@H](CC(C)C)NC(=O)[C@@H](NC(=O)[C@@H](NC(=O)[C@@H]1CCCN1C(=O)[C@H](CCCNC(=N)N)NC(=O)[C@H](CCCCN)NC(=O)[C@@H]1CCCN1)[C@@H](C)O)[C@@H](C)O)C(=O)N[C@@H](Cc1ccccc1)C(=O)NCCCCCC(=O)N[C@@H](CCCNC(=N)N)C(=O)N[C@@H](CCCNC(=N)N)C(=O)N[C@@H](CCCNC(=N)N)C(=O)N[C@@H](CCCNC(=N)N)C(=O)N[C@@H](CCCNC(=N)N)C(=O)N[C@@H](CCCNC(=N)N)C(=O)N[C@@H](CCCNC(=N)N)C(=O)N[C@@H](CCCNC(=N)N)C(=O)N[C@@H](CCCNC(=N)N)C(N)=O | Mitogen-activated protein kinase 9 (MAPK9, Homo sapiens, UniProt P45984) | enzyme activity, inhibitor | – | – | ~0.09 µM and 0.089 µM
COc1cc2oc(-c3ccc(O)cc3O)cc2c(OC)c1CC=C(C)C | Prothrombin (F2, Homo sapiens, UniProt P00734) | enzyme activity, inhibitor, fluorescence | – | with preincubation | > 100 µM
COC(=O)CCSc1nc2n(n1)C(c1cccc(OC)c1)C(C(=O)Nc1cccnc1)=C(C)N2 (stereo not drawn) | Serine/threonine-protein kinase mTOR (MTOR, Homo sapiens, UniProt P42345) | enzyme activity, inhibitor, TR-FRET | – | – | 0.016 µM
CNC(=O)CCC12CCC(C)(C)C[C@H]1[C@H]1C(=O)C=C3[C@@]4(C)C=C(C#N)C(=O)C(C)(C)[C@@H]4CC[C@@]3(C)[C@]1(C)CC2 (stereo partly drawn) | Kelch-like ECH-associated protein 1 (KEAP1, Homo sapiens, UniProt Q14145) | ligand displacement, TR-FRET | – | – | 0.016 µM
O=Cc1ccc2c(c1C#Cc1ccc(O)cc1)C(c1ccc(O)cc1)(c1ccc(O)cc1)c1cc(O)ccc1-2 | 3',5'-cyclic-AMP phosphodiesterase 4D (PDE4D, Homo sapiens, UniProt Q08499) | enzyme activity, inhibitor, fluorescence | – | – | 0.26 µM
O=c1[nH]c(=O)c2ncn(CCOCP(=O)(O)OP(=O)(O)OP(=O)(O)O)c2[nH]1 | DNA polymerase alpha catalytic subunit (POLA1, Homo sapiens, UniProt P09884) | DNA polymerase activity, inhibitor | – | together with: [3H]dTTP, calf thymus DNA | > 100 µM
CC(=O)N1CCN(c2cccc(NC(=O)CCc3cccc4c3B(O)OC4)c2)CC1 | Cleavage and polyadenylation specificity factor subunit 3 (CPSF3, Homo sapiens, UniProt Q9UKF6) | ligand displacement, FP | – | – | 0.15 µM
N=C(NCCCSCC1OC(n2cnc3c(N)ncnc32)C(O)C1O)NCCCC(N)C(N)=O (stereo not drawn) | Protein arginine N-methyltransferase 1 (PRMT1, Homo sapiens, UniProt Q99873) | enzyme activity, inhibitor, fluorescence | – | – | 6.5 µM
OC[C@@H]1NC[C@H](O)[C@@H]1O | Golgi alpha-mannosidase IIb (Drosophila melanogaster, UniProt Q9VF33) | inhibitor | – | together with: p-nitrophenyl mannoside | 270 µM
Cc1cc(C)cc(CSc2nc3cc(Cl)ccc3c(=O)n2CCSCCN)c1 | Protein RecA (recA, Escherichia coli, UniProt P0A7G6) | ATPase activity, inhibitor, phosphomolybdate blue | – | together with: poly(dT) ssDNA | 11 µM
O=C(O[C@H]1Cc2c(O)cc(O)cc2O[C@@H]1c1ccc(O)cc1)c1cc(O)c(O)c(O)c1 | maltase, rat | enzyme activity, inhibitor | rat intestinal brush border vesicles | – | 15.8 µM
